Published values pooled from the literature.
Compare with care: the assays were run in different laboratories.
Organism: Staphylococcus aureus

Nn1c(CCCc2ccccc2)nc2ccccc2c1=O — MIC (broth microdilution; RN6390B): > 100 µM
CN(C)c1cc(CN)c(O)c2c1C[C@H]1C[C@H]3[C@H](N(C)C)C(O)=C(C(N)=O)C(=O)[C@@]3(O)C(O)=C1C2=O — MIC (MRSA 5, Tet M ribosome protection): 32 µg/mL
CC1OCC2OC(OC3C(N)CC(N)C(O)C3OC3OC(CO)C(OC4OC(CN)C(O)C(O)C4N)C3O)C(N)C(O)C2O1 (stereo not shown) — MIC (broth microdilution; MRSA isolate AG 044): 32 to 64 µg/mL
CC(=O)[O][Ag]=[c]1n(C)ccn1CC([O-])c1ccccc1.[Na+] (stereo not shown) — MIC (broth dilution; ATCC 23235; 18 h, 37 °C): 5 µg/mL
Cc1ccc(NC(=O)C2C(=O)C(c3ccccc3)c3ccc4c(c32)C(=O)c2ccccc2C4=O)cc1 (stereo not shown) — MIC (microbial growth): 64 µg/mL
CCc1nc(N)nc(N)c1C#CC(C)c1cc(-c2ccncc2)ccc1OC (racemic) — MIC (broth microdilution; ATCC 43300; 18 h, 37 °C): 0.625 µg/mL
CCCCCCCCCCCC[S+]([O-])CC1OC(OC2C(N)CC(N)C(OC3OC(CN)C(O)CC3N)C2O)C(O)C(N)C1O (mixture of isomers) — MIC (methicillin-resistant): 75 µg/mL
O=C(NCCNCCO)c1cn(Cc2cccc(Br)c2)c2cc(Cl)c(OCc3ccc(C(F)(F)F)cc3)cc2c1=O — MIC (ATCC 43300 MRSA; ≥80% growth inhibition): < 0.25 µg/mL
NC[C@@H]1O[C@H](O[C@H]2[C@@H](O)[C@H](O[C@@H]3[C@@H](O)[C@H](N)C[C@H](N)[C@H]3O[C@H]3O[C@H](CO)[C@@H](OCC(O)CO)[C@H](O)[C@H]3N)O[C@@H]2CO)[C@H](N)[C@@H](O)[C@@H]1O (stereo partly shown) — MIC (broth microdilution; MRSA isolate AG 042): 16 µg/mL
COc1c2c(cc3oc(=O)cc(-c4ccc(Cl)cc4)c13)C(=O)c1cc(C)cc(O)c1C2=O — MIC (microbial growth): 64 µg/mL
CNC(CC(C)C)C(=O)NC1C(=O)NC(CC(N)=O)C(=O)NC2C(=O)NC3C(=O)NC(C(=O)NC(C(=O)NCCCNC(=N)N)c4cc(O)cc(O)c4-c4cc3ccc4O)C(O)c3ccc(c(Cl)c3)Oc3cc2cc(c3OC2OC(CO)C(O)C(O)C2OC2CC(C)(NCc3ccc(-c4ccc(Cl)cc4)cc3)C(O)C(C)O2)Oc2ccc(cc2Cl)C1O (stereo not shown) — MIC (MRSA ATCC 43300): 0.02 µg/mL
CCCCc1ccc(N2C(=O)/C(=N\NC(=N)N)c3cc([N+](=O)[O-])ccc32)cc1 — MIC (microbial growth, broth dilution; 18 h): > 192 µg/mL
CN(C)c1cc(CNC(C)(C)C)c(O)c2c1C[C@H]1C[C@H]3[C@H](N(C)C)C(O)=C(C(N)=O)C(=O)[C@@]3(O)C(O)=C1C2=O — MIC (microbial growth, broth dilution): 4 µg/mL
CCCS[C@H]1[C@H](O)[C@@H](N)[C@@H](O[C@H]2[C@H](O[C@@H]3O[C@H](CO)[C@@H](O[C@H]4O[C@@H](CN)[C@@H](O)[C@H](O)[C@H]4N)[C@H]3O)[C@@H](O)[C@H](N)C[C@@H]2N)O[C@@H]1CO — MIC (methicillin-resistant): 1 to 2 µg/mL
CN(C)c1cc(CN2CCCC2)c(O)c2c1C[C@H]1C[C@H]3[C@H](N(C)C)C(O)=C(C(N)=O)C(=O)[C@@]3(O)C(O)=C1C2=O — MIC (RN4250, Tet K efflux): 2 µg/mL
O=C(c1cc(Cl)c(Cl)[nH]1)c1ccccc1O — MIC (microbial growth, broth dilution; NCTC8325; 20 h): 2 µg/mL
CCN(CC)CCCN1/C(=C/c2cc(C)[n+](C)c3ccccc23)Sc2ccccc21 — MIC (microbial growth, broth dilution; ATCCBAA41 MRSA): 2 µg/mL
CNC(CC(C)C)C(=O)NC1C(=O)NC(CC(N)=O)C(=O)NC2C(=O)NC3C(=O)NC(C(=O)NC(C(=O)O)c4cc(O)cc(O)c4-c4cc3ccc4O)C(O)c3ccc(c(Cl)c3)Oc3cc2cc(c3OC2OC(CO)C(O)C(O)C2OC2CC(C)(NC(=O)CCCCCCCCC[N+]3(C)CCOCC3)C(O)C(C)O2)Oc2ccc(cc2Cl)C1O (stereo not shown) — MIC (agar dilution; MRSA clinical isolate MRSA3): 64 µg/mL
C=C(NC(=O)C(=C)NC(=O)c1csc(C2=NC3c4csc(n4)C4NC(=O)c5csc(n5)C(C(C)(O)C(C)O)NC(=O)C5CSC(=N5)C(=CC)NC(=O)C(C(C)O)NC(=O)c5csc(n5)C3(CC2)NC(=O)C(C)NC(=O)C(=C)NC(=O)C(=CC)NC(=O)C(C(C)CC)NC2C=Cc3c(C(C)O)cc(nc3C2O)C(=O)OC4C)n1)C(N)=O (stereo not shown) — MIC (broth microdilution; ATCC 10537 MRSA; 18 h, 37 °C): 0.11 µg/mL
CC(C)C[C@H](NC(=O)[C@H](CC(C)C)NC(=O)[C@H](CCCCN)NC(=O)[C@@H]1CCCN1C(=O)[C@H](CC(C)C)NC(=O)[C@H](CC(C)C)NC(=O)[C@H](CCCCN)NC(=O)[C@H](CC(C)C)NC(=O)[C@H](CC(C)C)NC(=O)[C@H](CO)NC(=O)CNC(=O)[C@H](CC(C)C)NC(=O)[C@@H](N)CC(C)C)C(N)=O — MIC (broth microdilution; USA300 MRSA): 0.78 to 1.56 µM
CNC(CC(C)C)C(=O)NC1C(=O)NC(CC(N)=O)C(=O)NC2C(=O)NC3C(=O)NC(C(=O)NC(C(=O)O)c4cc(O)cc(O)c4-c4cc3ccc4O)C(O)c3ccc(c(Cl)c3)Oc3cc2cc(c3OC2OC(CO)C(O)C(O)C2OC2CC(C)(NC(=O)CCCCCC[n+]3ccccc3)C(O)C(C)O2)Oc2ccc(cc2Cl)C1O (stereo not shown) — MIC (agar dilution; MRSA clinical isolate MRSA4): 128 µg/mL
CCc1[nH]c(C(=O)N[C@@H]2CCN(c3nnc(C(C)(C)O)s3)C[C@@H]2OC)nc1Cl — MIC (ATCC 29213): 0.5 µg/mL
CC(C)=CCc1cc2c(cc1O)OC[C@H]1c3ccc(O)c(CC=C(C)C)c3O[C@@H]21 — MIC: 2 to 4 µg/mL
COCCNCc1cc(N(C)C)c2c(c1O)C(=O)C1=C(O)[C@]3(O)C(=O)C(C(N)=O)=C(O)[C@@H](N(C)C)[C@@H]3C[C@@H]1C2 — MIC (microbial growth, broth dilution): 0.5 µg/mL
CC(C)C[C@H](NC(=O)[C@H](CC(N)=O)NC(=O)[C@H](CCCNC(=N)N)NC(=O)[C@@H](CC(C)C)NC(=O)[C@H](Cc1ccccc1)NC(=O)[C@H](CC(=O)O)NC(=O)[C@H](CCCCN)NC(=O)[C@@H](CC(C)C)NC(=O)[C@H](CCCNC(=N)N)NC(=O)[C@H](CCC(N)=O)NC(=O)[C@@H](NC(=O)[C@@H](CC(C)C)NC(=O)[C@H](CCCNC(=N)N)NC(=O)[C@H](CCCCN)NC(=O)[C@H](Cc1ccc(C(F)(F)F)cc1)NC(=O)CN)C(C)C)C(=O)N[C@H](C(N)=O)C(C)C — MIC (broth microdilution; USA300 LAC, MRSA): 25 µM
C[n+]1ccc(/C=C2\Sc3ccccc3N2CCCN2CCCC2)c2ccccc21 — MIC (microbial growth, broth dilution; ATCC29213): 32 µg/mL
Nn1c(CCCc2ccccc2)nc2cc(Cl)ccc2c1=O — MIC (broth microdilution; RN6390B): > 100 µM
CN(C)c1cc(CN2CCOCC2)c(O)c2c1C[C@H]1C[C@H]3[C@H](N(C)C)C(O)=C(C(N)=O)C(=O)[C@@]3(O)C(O)=C1C2=O — MIC (microbial growth, broth dilution): 2 µg/mL
N=C(N)NCCC[C@@H]1NC(=O)[C@H](CCCNC(=N)N)NC(=O)[C@H](CCCNC(=N)N)NC(=O)[C@H](Cc2c[nH]c3ccccc23)NC(=O)[C@H](Cc2c[nH]c3ccccc23)NC(=O)[C@H](Cc2c[nH]c3ccccc23)NC(=O)[C@H](Cc2c[nH]c3ccccc23)NC(=O)[C@H](CCCNC(=N)N)NC1=O — MIC (broth microdilution; MRSA ATCC 43300): 4 µg/mL
CN(C)c1cc(CNC2CCCCC2)c(O)c2c1C[C@H]1C[C@H]3[C@H](N(C)C)C(O)=C(C(N)=O)C(=O)[C@@]3(O)C(O)=C1C2=O — MIC (MRSA 5, Tet M ribosome protection): 1 µg/mL
Cc1cc(/C=C2\Sc3ccccc3N2CCCN2CCCC2)c2ccccc2[n+]1C — MIC (microbial growth, broth dilution; MRSA): 32 µg/mL
Oc1c(Br)cc(Br)c2nc3cc(Cl)ccc3nc12 — MIC (broth microdilution; MRSA 1707; 16 h, 37 °C): 0.08 µM
C=CCNCc1cc(N(C)C)c2c(c1O)C(=O)C1=C(O)[C@]3(O)C(=O)C(C(N)=O)=C(O)[C@@H](N(C)C)[C@@H]3C[C@@H]1C2 — MIC (MRSA 5, Tet M ribosome protection): 1 µg/mL
O=C1OCC(NCCc2ccc(Cl)cc2)N1/N=C/c1ccc([N+](=O)[O-])o1 (stereo not shown) — MIC (microbial growth, broth dilution; ATCC29213; 18 h): 3.12 µg/mL
CNC(CC(C)C)C(=O)NC1C(=O)NC(CC(N)=O)C(=O)NC2C(=O)NC3C(=O)NC(C(=O)NC(C(=O)O)c4cc(O)cc(O)c4-c4cc3ccc4O)C(O)c3ccc(c(Cl)c3)Oc3cc2cc(c3OC2OC(CO)C(O)C(O)C2OC2CC(C)(NC(=O)CCCCCCCCC[N+](C)(C)C)C(O)C(C)O2)Oc2ccc(cc2Cl)C1O (stereo not shown) — MIC (agar dilution; MRSA clinical isolate MRSA3): 512 µg/mL
CC1C=CC=CC(C)C2C=CC3CC(C)(O)C(Br)C(C)C3C2C(=O)C(Cl)(Cl)C(=O)C(C)C(=O)O1 (stereo not shown) — MIC (microbial growth, broth dilution; NEWMAN): 0.05 µg/mL
CO[C@H]1[C@H](O)[C@@H](N)[C@@H](O[C@H]2[C@H](O[C@@H]3O[C@H](CO)[C@@H](O[C@H]4O[C@@H](CN)[C@@H](O)[C@H](O)[C@H]4N)[C@H]3O)[C@@H](O)[C@H](N)C[C@@H]2N)O[C@@H]1CO — MIC (broth microdilution; MRSA isolate AG 044): 32 µg/mL
S=c1n(CN2CCN(c3ccccn3)CC2)nc(C23CC4CC(CC(C4)C2)C3)n1-c1ccccc1 — MIC (two-fold dilution; IFO 3060; 24 h, 36 °C): 0.5 µg/mL
CSC1COC(=O)N1/N=C/c1ccc([N+](=O)[O-])o1 (stereo not shown) — MIC (microbial growth, broth dilution; ATCC29213; 18 h): 25 µg/mL
C/C(=N\NC1=NC(=O)CS1)c1ccc2c(c1)sc1nc(=O)c(C#N)cn12 — MIC (microbial growth, broth dilution): < 48 µg/mL
CCCCCC(C)CCc1nc2ccccc2c(=O)n1N (stereo not shown) — MIC (broth microdilution; RN6390B): > 100 µM
CN(C)c1cc(CNCC2CCCCC2)c(O)c2c1C[C@H]1C[C@H]3[C@H](N(C)C)C(O)=C(C(N)=O)C(=O)[C@@]3(O)C(O)=C1C2=O — MIC (RN4250, Tet K efflux): 1 µg/mL
N#Cc1ccc2cccc(O)c2n1 — MIC (microbial growth, agar dilution; ATCC25923): > 1500 µM
